Measured values gathered from unrelated publications.
Compare with care: the assays were run in different laboratories. “And” joins repeats or separate records; there may be more than shown. pEC50, pIC50: −log10 of the molar value.
Cell line: A2780

CCc1cc(Nc2nccc(-c3c(-c4ccc(OC)c(C(=O)Nc5c(F)cccc5F)c4)nc4ccccn34)n2)c(OC)cc1N1CCC(N2CCN(S(C)(=O)=O)CC2)CC1
pEC50 (cell proliferation, resazurin; 72 h): < 4.60

CCN(CC)CCNC(=O)c1c(C)[nH]c(/C=C2\C(=O)Nc3ccc(F)cc32)c1C
pIC50 (AKT Ser473 phosphorylation, inhibitor, item: phospho-AKT Ser473; added: PDGF): 7.77

CCOc1ccc2cc(C3CC(c4ccc(Br)cc4)=NN3C(=O)CCC(=O)O)c(Cl)nc2c1 (stereo not shown)
pIC50 (colony formation; 48 h): < 4.30 and 4.26

Fc1ccc(CNc2ncnc3ccc(F)cc23)cc1
pEC50 (cell proliferation, resazurin; 72 h): < 4.60

O=C1Nc2ccccc2C1=Cc1cc2cc(Cl)ccc2nc1Cl
pIC50 (cell growth or viability, MTT; 72 h): 5.11

CNC(=O)c1cc(Oc2ccc(NC(=O)Nc3ccc(Cl)c(C(F)(F)F)c3)cc2)ccn1
pIC50 (AKT Ser473 phosphorylation, inhibitor, item: phospho-AKT Ser473; added: PDGF): 5.88

CC[PH](CC)(CC)[Au][S][C@@H]1O[C@H](COC(C)=O)[C@@H](OC(C)=O)[C@H](OC(C)=O)[C@H]1OC(C)=O
pIC50 (cell growth or viability, MTT): 5.96

COc1cc2cc(C=C3C(=O)Nc4ccccc43)c(Cl)nc2cc1OC
pIC50 (cell growth or viability, MTT; 72 h): < 4.00

CC1(C)CC(C)(C)c2cc(N/C(S)=N/c3ccc([N+](=O)[O-])cc3)ccc2S1
pEC50 (item: cyclin D1; 24 h; decrease): 5.30 to 5.40

COc1cc2c(cc1O)CC[C@@H]1[C@@H]2CC[C@]2(C)[C@@H](O)CC[C@@H]12
pIC50 (cell growth or viability, MTT; 48 h): 6.23

O=C1Nc2ccccc2C1=Cc1cc2ccc3ccccc3c2nc1Cl
pIC50 (cell growth or viability, MTT; 72 h): < 4.00

c1ccc(P(=NCc2ccccn2)(c2ccccc2)c2ccccc2)cc1
pIC50 (cell growth or viability, MTT; 74 h): < 4.00

O=C1Nc2ccccc2C1=Cc1cc2ccc(Cl)cc2nc1Cl
pIC50 (cell growth or viability, MTT; 72 h): 4.64

CC(C)=CCC1=C(O)C(=O)c2ccccc2C1=O
pIC50 (cell growth or viability, MTT; 48 h): < 4.30

COc1ccc2nc(Cl)c(C=C3C(=O)Nc4ccccc43)cc2c1
pIC50 (cell growth or viability, MTT; 72 h): < 4.00

C=CCN(/C=C1/C(=O)O[C@H](COC)[C@@]2(C)C1=C(O)C(=O)C1=C2[C@H](OC(C)=O)C[C@]2(C)C(=O)CC[C@@H]12)CC=C
pEC50 (cell proliferation, resazurin; 72 h): < 4.60

A few entries again:
COc1cc2cc(C=C3C(=O)Nc4ccccc43)c(Cl)nc2cc1OC
pIC50 (cell growth or viability, MTT; 72 h): < 4.00

C=CCN(/C=C1/C(=O)O[C@H](COC)[C@@]2(C)C1=C(O)C(=O)C1=C2[C@H](OC(C)=O)C[C@]2(C)C(=O)CC[C@@H]12)CC=C
pEC50 (cell proliferation, resazurin; 72 h): < 4.60
